Published values collected from several papers.
Each numbered part is a random draw from the data of one study; scales do not carry over between parts. Values after ≈ are worked out from the molar mass of the structure shown.
UniProt P11388, sequence (whole entry, looked up): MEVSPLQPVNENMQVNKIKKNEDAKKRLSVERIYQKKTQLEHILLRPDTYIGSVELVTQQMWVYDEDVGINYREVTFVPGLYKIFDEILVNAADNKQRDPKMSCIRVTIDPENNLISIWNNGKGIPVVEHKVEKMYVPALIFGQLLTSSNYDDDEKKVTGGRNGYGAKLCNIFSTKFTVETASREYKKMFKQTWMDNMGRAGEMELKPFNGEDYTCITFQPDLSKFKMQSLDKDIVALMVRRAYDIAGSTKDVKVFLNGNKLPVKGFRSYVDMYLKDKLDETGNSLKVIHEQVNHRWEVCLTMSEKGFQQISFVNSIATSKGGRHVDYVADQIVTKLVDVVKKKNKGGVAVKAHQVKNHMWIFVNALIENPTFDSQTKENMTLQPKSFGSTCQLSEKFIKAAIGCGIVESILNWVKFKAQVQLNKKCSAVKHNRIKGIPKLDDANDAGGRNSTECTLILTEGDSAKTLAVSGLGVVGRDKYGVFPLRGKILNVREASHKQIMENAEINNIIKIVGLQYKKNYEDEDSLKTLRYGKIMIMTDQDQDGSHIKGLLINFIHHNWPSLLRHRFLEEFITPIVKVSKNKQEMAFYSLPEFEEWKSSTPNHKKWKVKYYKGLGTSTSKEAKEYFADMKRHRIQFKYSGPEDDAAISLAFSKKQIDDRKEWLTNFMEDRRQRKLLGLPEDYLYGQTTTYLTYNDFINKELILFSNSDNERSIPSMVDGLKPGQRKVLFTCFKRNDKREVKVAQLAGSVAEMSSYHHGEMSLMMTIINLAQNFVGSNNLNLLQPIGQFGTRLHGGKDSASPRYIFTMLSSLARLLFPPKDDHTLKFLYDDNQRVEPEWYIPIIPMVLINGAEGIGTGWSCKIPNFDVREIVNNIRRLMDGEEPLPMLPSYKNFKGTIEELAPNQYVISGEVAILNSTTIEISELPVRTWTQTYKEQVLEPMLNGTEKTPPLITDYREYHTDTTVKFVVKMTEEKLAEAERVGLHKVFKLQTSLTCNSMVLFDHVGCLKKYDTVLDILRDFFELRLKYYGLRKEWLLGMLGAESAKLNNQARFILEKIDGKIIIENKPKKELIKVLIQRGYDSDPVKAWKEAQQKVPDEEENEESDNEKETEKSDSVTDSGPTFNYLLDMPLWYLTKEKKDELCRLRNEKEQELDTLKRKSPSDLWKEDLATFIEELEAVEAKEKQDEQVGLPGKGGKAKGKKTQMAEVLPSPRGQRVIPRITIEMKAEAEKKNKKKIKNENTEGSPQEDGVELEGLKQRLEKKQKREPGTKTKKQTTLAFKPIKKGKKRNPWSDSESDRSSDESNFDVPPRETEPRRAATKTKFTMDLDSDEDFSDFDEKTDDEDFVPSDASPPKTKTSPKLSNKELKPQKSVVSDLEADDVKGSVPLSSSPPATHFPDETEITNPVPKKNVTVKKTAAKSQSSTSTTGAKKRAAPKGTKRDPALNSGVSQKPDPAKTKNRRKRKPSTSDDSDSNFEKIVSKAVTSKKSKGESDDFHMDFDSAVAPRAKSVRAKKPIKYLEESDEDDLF

Series 1
SMILES: Fc1ccccc1Cc1nc(-c2nc(C(F)(F)F)n[nH]2)cn2ccnc12
Species: healthy volunteers
Setting: single ascending dose, unit not given
Relative to: placebo
30 mg — “delayed maze test moves”: -0.8.
0.3 mg — “delayed maze test moves”: 3.
The “delayed maze test moves” was -1.1 (3 mg).
1 mg — “delayed maze test moves”: -0.8.

Series 2
SMILES: CO/N=C(\C(=O)N[C@@H]1C(=O)N2C(C(=O)O)=C(COC(C)=O)CS[C@H]12)c1csc(N)n1
Organism: Pseudomonas aeruginosa
It gave > 16 µg/mL for MIC (clinical isolate RKI-No_481/15).
clinical isolate RKI-No_497/15 — MIC: > 16 µg/mL.
For broth microdilution; clinical isolate RKI-No 485/15-1: MIC read > 16 µg/mL.
The MIC was 16 µg/mL (≈ 35.1 µM) (clinical isolate RKI-No_612/16).

Further values, each from its own experiment
`N#CCC1CCN(c2nc(Nc3ccc(N4CCC(O)CC4)cc3)c3c(=O)[nH]ncc3n2)CC1`: “serum level change” -1.34 (Olink multiplex, measured: CD163; human, serum; 80 mg, day 15, unit not given; relative to: placebo).
For `COc1cc([C@@H]2c3cc4c(cc3[C@@H](O[C@@H]3O[C@@H]5CO[C@@H](C)O[C@H]5[C@H](O)[C@H]3O)[C@H]3COC(=O)[C@H]23)OCO4)cc(OC)c1O`, the linear DNA was 10.8% (TOP2A (Homo sapiens, UniProt P11388); DNA cleavage; 15.6 µM, replicate 1).
`COC(=O)Nc1c(N)nc(-c2nn(Cc3ccccc3F)c3ncc(F)cc23)nc1N` gave an AUC of 4930 ng·h/mL (humans, plasma; oral, 10 mg single dose, phase I DDI study, alone).

For quick reference, copied from above (further values, each from its own experiment):
`N#CCC1CCN(c2nc(Nc3ccc(N4CCC(O)CC4)cc3)c3c(=O)[nH]ncc3n2)CC1`: “serum level change” -1.34 (Olink multiplex, measured: CD163; human, serum; 80 mg, day 15, unit not given; relative to: placebo).
